Assay results of several laboratories.
Values joined by “and” are separate records of one study, mostly repeats; a detail may differ.
Method: steady-state kinetics
B1: enzyme (Sargassum horneri, UniProt A0A097IUG6); chain SPMAVASPSGFQKAMKTTLSSLGIDKATGITKPTTIYRNLPYPEVFKHEEQNKEGEVTKNGTFCVSTGQFTGRSPKDKYFVKQAPSDGKLDWGKINKGVASEVYKNIYDKAVKHYNTNVDKMYVFDGYCGTSPKSRKNVRIITELAWQHHFAKNMFIRPETEEEVANFVPDFTIINACKIVNEDYKELGLNSEVAVVFNVEESKAVITGTWYGGEMKKGIFSMMNYWLPLDGVMSMHCSANKGKDGDTALFFGLSGTGKTTLSADPARYLIGDDEHGWDDDGIFNFEGGCYAKTVNLSRENEPEIYDAIKRDALLENVIIKKNGEPDYADVSRTENTRVSYPIYHIDNYEPSGMGDHPKSIVFLTCDAFGVLPPVSRLSPGQAMYHFLSGYTAKVAGTERGVTEPTPNFSAGFGAAFLTLHPTVYADLLQEKLDKHGTQCFLINTGWTGGGYGVGKRMSIKATRACVDAVLDGSINKTKFTKEPVFGFEVPQELPNVPSKVLNPREAWSDKASYDATRTKLGDMFKNNFTKFVKPGMTDYTAYGPK
B2: enzyme (Lacticaseibacillus rhamnosus, UniProt A0A7S7JIA0); chain MSEPLPRIKRYEDLGLGLFIHWGLYSQLAVGEWTEFIHHRSRSEYEKLIATFTANQFDAEAIAHAAKMMGAKYIVLTTKHHEGFFLYDTKGLSSFDVMHSPANRDLIAEFVAACRKEGLLPFFYVATYDWHSPLYEENFPAYLDYLKASVEVLCRHYGPVGGFWFDGNWNKKEADWQLPALYGMIRKYQPDAIIVNNTGLKNRGKVSDPEIDVVTYERRTPDEIYHGAPNAKYVAGEISMTLNQHWGIATNDLNYKSPAEVIETVAHARHIGANILVNIGLTGQGAIPASAKTYMALLGRWTTMAAPALYRGRPTAIVSGQGARDFVLHADAHDYLCVFDLKVVGNDNVVLGGEGVNPRSFVGIDRPIESVYWLDNEEYLSFTQDLHKRVLTVDATGYPYGSDWVVRIAQIDYKSENRTVKSD
B3: enzyme (Trypanosoma brucei, UniProt Q9GV41); chain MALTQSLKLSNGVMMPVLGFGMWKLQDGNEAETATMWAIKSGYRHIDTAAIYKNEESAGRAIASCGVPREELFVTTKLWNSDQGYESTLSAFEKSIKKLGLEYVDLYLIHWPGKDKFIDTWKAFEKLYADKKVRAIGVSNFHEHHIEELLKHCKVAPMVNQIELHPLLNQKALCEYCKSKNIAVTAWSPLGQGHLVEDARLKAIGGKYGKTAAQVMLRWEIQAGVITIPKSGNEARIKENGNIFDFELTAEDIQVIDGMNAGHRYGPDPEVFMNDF
B4: enzyme (Arabidopsis thaliana, UniProt Q9FJN8); chain TSGGGYGDPSQKIDYVFKVVLIGDSAVGKSQILARYARDEFSLDSKATIGVEFQTRTLVIDHKSVKAQIWDTAGQERYRAVTSAYYRGAVGAMLVYDITRRQTFDHIPRWLEELRAHADKNIVIILIGNKSDLVDQRAIPTEDAKEFAEKEGLFFLETSAFNATNVESAFSTVLTEIFNIVNKKSLAASEDQENGNPGSLAGKKIDIVPGPGQVIPNKSNMCCNS
B5: UGT1A3 (Homo sapiens, UniProt P35503); chain GKVLVVPIDGSHWLSMREVLRELHARGHQAVVLTPEVNMHIKEENFFTLTTYAISWTQDEFDRHVLGHTQLYFETEHFLKKFFRSMAMLNNMSLVYHRSCVELLHNEALIRHLNATSFDVVLTDPVNLCAAVLAKYLSIPTVFFLRNIPCDLDFKGTQCPNPSSYIPRLLTTNSDHMTFMQRVKNMLYPLALSYICHAFSAPYASLASELFQREVSVVDILSHASVWLFRGDFVMDYPRPIMPNMVFIGGINCANRKPLSQEFEAYINASGEHGIVVFSLGSMVSEIPEKKAMAIADALGKIPQTVLWRYTGTRPSNLANNTILVKWLPQNDLLGHPMTRAFITHAGSHGVYESICNGVPMVMMPLFGDQMDNAKRMETKGAGVTLNVLEMTSEDLENALKAVINDKSYKENIMRLSSLHKDRPVEPLDLAVFWVEFVMRHKGAPHLRPAAHDLTWYQYHSLDVIGFLLAVVLTVAFITFKCCAYGYRKCLGKKGRVKKAHKSKTH
B6: enzyme C76S (UniProt A0A0P0CH59); chain MRIALFSDIHANLPALEAVLANMETQQLDAIYCLGDLVGYAPWPNEVVAEIRKRRIPTIAGNYDEGVGLWSPNCGSAYKTDTEKDLGQQSIDFTNNVVTEETRKYLRMLPRQLRLTFMDGSKEENKIELLLVHGSPRKINEYLFEDRPEKSFLKMMEEANADLLFFGHTHKPYHRAMPYEHEGQTRYRHAINIGSVGKPKDGDPRTGYVVVELTPESSLTQKDSIKVEFIRVPYDVETAAQAVEASPLPNEFAQMLRTA
B7: enzyme (Nicotiana tabacum, UniProt A0A1S3XCJ5); chain MLPQLSNSSGSGYSWMQDNSASCGNFSRNGRKQGPLNSVAPTERAQISSVDDLYDFICSGPLINKIGLTPEKVAESIDKWIEYGFRLCRLFQLNQLALNEPQKIRLYHYYIPVFLWCEQEISQHSSKFKDNEEIPPLVIGFSAPQGCGKTTLVFALEYLFKITGRKAATLSIDDFYLTAEEQAKLRENNPGNLLLEFRGNAGSHDLSLSVETLAELSKVTKEGVKMKLPRYDKSAYNGRGDRADPSTWPEVEGPLTVILFEGWMLGFKPLPPEAVKAVDPQLETVNKNLEAYYDAWYKYVKSWIIIKIHDPSYVYQWRLQAEIAMRADGNPGMSDEEVRDFVSRYLPAYKAYLPTLYSEGPTGADPEHVLLVEIDEGRNPILGS
B8: enzyme (Arabidopsis thaliana, UniProt Q9C969); chain GSFGMLSRRTLGTDMPVMAQIRSLMAELTNPMSLAQGVVHWQPPQKALEKVKELVWDPIISSYGPDEGLPELRQALLKKLREENKLTNSQVMVTAGANQAFVNLVITLCDAGDSVVMFEPYYFNSYMAFQMTGVTNIIVGPGQSDTLYPDADWLERTLSESKPTPKVVTVVNPGNPSGTYVPEPLLKRIAQICKDAGCWLIVDNTYEYFMYDGLKHCCVEGDHIVNVFSFSKTYGMMGWRLGYIAYSERLDGFATELVKIQDNIPICAAIISQRLAVYALEEGSGWITERVKSLVKNRDIVKEALEPLGKENVKGGEGAIYLWAKLPEGHRDDFKVVRWLAHRHGVVVIPGCASGSPGYLRVSFGGLQEVEMRAAAARLRKGIEELLHHGMVE
UniProt Q9FMF5, sequence (whole entry, looked up): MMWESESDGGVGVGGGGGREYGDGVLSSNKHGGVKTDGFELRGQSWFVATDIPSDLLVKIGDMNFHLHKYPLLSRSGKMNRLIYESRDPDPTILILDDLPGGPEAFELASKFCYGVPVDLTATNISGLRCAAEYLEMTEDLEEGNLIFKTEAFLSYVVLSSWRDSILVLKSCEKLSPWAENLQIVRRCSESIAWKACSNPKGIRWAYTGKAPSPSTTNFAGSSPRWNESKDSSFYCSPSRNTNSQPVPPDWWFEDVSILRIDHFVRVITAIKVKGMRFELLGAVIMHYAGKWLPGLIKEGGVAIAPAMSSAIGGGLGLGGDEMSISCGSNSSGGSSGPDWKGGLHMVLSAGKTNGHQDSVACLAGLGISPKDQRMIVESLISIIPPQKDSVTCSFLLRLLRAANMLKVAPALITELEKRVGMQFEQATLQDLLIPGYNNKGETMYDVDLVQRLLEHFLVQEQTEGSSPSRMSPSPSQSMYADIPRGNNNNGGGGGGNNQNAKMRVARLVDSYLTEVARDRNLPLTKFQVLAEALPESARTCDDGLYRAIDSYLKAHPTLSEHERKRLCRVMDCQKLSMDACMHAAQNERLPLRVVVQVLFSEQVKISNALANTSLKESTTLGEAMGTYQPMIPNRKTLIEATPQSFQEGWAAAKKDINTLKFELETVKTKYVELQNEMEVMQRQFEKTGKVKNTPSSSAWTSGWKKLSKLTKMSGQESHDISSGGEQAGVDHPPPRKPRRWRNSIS
UniProt P10632, sequence (whole entry, looked up): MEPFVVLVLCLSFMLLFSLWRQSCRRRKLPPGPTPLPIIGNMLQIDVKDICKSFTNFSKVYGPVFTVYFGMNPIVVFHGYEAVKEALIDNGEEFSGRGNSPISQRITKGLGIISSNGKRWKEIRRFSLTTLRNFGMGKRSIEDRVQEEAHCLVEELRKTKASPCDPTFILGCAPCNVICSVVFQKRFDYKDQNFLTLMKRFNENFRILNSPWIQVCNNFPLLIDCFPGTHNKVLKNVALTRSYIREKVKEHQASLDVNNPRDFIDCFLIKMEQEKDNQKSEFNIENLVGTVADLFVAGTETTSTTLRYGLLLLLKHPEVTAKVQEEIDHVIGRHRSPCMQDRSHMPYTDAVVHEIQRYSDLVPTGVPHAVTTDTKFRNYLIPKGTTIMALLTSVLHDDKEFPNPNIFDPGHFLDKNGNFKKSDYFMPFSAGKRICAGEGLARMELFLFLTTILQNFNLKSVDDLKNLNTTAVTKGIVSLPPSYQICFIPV

Molecule | substrate | conditions | Vmax
gdh N192L (Bacillus subtilis) | NC(=O)c1ccc[n+]([C@@H]2O[C@H](COP(=O)(O)OP(=O)(O)OC[C@H]3O[C@@H](n4cnc5c(N)ncnc54)[C@H](O)[C@@H]3O)[C@@H](O)[C@H]2O)c1 | pH 7, 40 °C | 392 µmol/min/mg
B1 (enzyme) | C=C(OP(=O)(O)O)C(=O)O | pH 6.5, 25 °C, added: 2 mM ADP | 39.2 µmol/min/mg
B2 (enzyme) | C[C@@H]1O[C@@H](Oc2ccc([N+](=O)[O-])cc2)[C@@H](O)[C@H](O)[C@@H]1O | pH 5, 40 °C | 2.49 µmol/min
B3 (enzyme) | O=Cc1ccc([N+](=O)[O-])cc1 | pH 7, 37 °C, added: NADPH 100 µM | 22 µmol/min/mg
B4 (enzyme) | Nc1nc2c(ncn2[C@@H]2O[C@H](COP(=O)(O)OP(=O)(O)OP(=O)(O)O)[C@@H](O)[C@H]2O)c(=O)[nH]1 | pH 7.5, 30 °C | 2.2 µmol/min
CYP2C8 (Homo sapiens, UniProt P10632) | CC(C)=CCc1cc2c(cc1O)O[C@H](c1ccc(O)cc1)CC2=O | pH 7.4, 37 °C | 0.000363 µmol/min/mg
gdh E198C (Bacillus subtilis) | NC(=O)c1ccc[n+]([C@@H]2O[C@H](COP(=O)(O)OP(=O)(O)OC[C@H]3O[C@@H](n4cnc5c(N)ncnc54)[C@H](O)[C@@H]3O)[C@@H](O)[C@H]2O)c1 | pH 8, 45 °C | 588 µmol/min/mg
B5 (UGT1A3) | O=c1cc(C(F)(F)F)c2ccc(O)cc2o1 | 37 °C, not purified | 0.000616 µmol/min/mg
B6 (enzyme C76S) | O=[N+]([O-])c1ccc(OP(=O)(O)O)cc1 | pH 7, 37 °C, added: Ni2+ 0.25 mM | 0.139 µmol/min/mg
B7 (enzyme) | O=C(O)[C@H](O)CO | pH 7.8, 30 °C | 37.7 µmol/min/mg
enzyme (Saccharina japonica, UniProt A0A097IUE3) | Nc1ncnc2c1ncn2[C@@H]1O[C@H](COP(=O)(O)OP(=O)(O)O)[C@@H](O)[C@H]1O | pH 6.5, 25 °C, added: 16 mM PEP | 23.6 µmol/min/mg
RPT3 (Arabidopsis thaliana, UniProt Q9FMF5) | Nc1nc2c(ncn2[C@@H]2O[C@H](COP(=O)(O)OP(=O)(O)OP(=O)(O)O)[C@@H](O)[C@H]2O)c(=O)[nH]1 | pH 7.5, 30 °C | 3.36 µmol/min
B8 (enzyme) | O=C(O)C(=O)Cc1c[nH]c2ccccc12 |  | 1400 µM/min/mg and 2550 µM/min/mg

Excerpt of the above:
Molecule | substrate | conditions | Vmax
B3 (enzyme) | O=Cc1ccc([N+](=O)[O-])cc1 | pH 7, 37 °C, added: NADPH 100 µM | 22 µmol/min/mg
